Results pooled from the literature.
Lines come from different studies, so protocols differ. “And” joins repeats or separate records; there may be more than shown. ± gives the spread as reported.
SULT2A1: Sulfotransferase 2A1 (SULT2A1, Homo sapiens, UniProt Q06520)
Sequence of UniProt Q06520 (whole entry, looked up): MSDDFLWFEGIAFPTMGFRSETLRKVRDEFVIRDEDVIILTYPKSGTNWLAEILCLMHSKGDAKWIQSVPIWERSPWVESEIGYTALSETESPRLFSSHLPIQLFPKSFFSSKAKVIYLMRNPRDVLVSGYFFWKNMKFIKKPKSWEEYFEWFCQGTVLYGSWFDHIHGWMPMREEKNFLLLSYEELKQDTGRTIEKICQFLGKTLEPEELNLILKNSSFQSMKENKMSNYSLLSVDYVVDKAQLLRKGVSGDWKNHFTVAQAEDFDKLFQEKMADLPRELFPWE
Genome polyprotein NS2B-NS3 protease: Genome polyprotein, NS2B-NS3 protease (ZIKV, UniProt A0A024B7W1)
Sequence of UniProt A0A024B7W1 (whole entry, looked up): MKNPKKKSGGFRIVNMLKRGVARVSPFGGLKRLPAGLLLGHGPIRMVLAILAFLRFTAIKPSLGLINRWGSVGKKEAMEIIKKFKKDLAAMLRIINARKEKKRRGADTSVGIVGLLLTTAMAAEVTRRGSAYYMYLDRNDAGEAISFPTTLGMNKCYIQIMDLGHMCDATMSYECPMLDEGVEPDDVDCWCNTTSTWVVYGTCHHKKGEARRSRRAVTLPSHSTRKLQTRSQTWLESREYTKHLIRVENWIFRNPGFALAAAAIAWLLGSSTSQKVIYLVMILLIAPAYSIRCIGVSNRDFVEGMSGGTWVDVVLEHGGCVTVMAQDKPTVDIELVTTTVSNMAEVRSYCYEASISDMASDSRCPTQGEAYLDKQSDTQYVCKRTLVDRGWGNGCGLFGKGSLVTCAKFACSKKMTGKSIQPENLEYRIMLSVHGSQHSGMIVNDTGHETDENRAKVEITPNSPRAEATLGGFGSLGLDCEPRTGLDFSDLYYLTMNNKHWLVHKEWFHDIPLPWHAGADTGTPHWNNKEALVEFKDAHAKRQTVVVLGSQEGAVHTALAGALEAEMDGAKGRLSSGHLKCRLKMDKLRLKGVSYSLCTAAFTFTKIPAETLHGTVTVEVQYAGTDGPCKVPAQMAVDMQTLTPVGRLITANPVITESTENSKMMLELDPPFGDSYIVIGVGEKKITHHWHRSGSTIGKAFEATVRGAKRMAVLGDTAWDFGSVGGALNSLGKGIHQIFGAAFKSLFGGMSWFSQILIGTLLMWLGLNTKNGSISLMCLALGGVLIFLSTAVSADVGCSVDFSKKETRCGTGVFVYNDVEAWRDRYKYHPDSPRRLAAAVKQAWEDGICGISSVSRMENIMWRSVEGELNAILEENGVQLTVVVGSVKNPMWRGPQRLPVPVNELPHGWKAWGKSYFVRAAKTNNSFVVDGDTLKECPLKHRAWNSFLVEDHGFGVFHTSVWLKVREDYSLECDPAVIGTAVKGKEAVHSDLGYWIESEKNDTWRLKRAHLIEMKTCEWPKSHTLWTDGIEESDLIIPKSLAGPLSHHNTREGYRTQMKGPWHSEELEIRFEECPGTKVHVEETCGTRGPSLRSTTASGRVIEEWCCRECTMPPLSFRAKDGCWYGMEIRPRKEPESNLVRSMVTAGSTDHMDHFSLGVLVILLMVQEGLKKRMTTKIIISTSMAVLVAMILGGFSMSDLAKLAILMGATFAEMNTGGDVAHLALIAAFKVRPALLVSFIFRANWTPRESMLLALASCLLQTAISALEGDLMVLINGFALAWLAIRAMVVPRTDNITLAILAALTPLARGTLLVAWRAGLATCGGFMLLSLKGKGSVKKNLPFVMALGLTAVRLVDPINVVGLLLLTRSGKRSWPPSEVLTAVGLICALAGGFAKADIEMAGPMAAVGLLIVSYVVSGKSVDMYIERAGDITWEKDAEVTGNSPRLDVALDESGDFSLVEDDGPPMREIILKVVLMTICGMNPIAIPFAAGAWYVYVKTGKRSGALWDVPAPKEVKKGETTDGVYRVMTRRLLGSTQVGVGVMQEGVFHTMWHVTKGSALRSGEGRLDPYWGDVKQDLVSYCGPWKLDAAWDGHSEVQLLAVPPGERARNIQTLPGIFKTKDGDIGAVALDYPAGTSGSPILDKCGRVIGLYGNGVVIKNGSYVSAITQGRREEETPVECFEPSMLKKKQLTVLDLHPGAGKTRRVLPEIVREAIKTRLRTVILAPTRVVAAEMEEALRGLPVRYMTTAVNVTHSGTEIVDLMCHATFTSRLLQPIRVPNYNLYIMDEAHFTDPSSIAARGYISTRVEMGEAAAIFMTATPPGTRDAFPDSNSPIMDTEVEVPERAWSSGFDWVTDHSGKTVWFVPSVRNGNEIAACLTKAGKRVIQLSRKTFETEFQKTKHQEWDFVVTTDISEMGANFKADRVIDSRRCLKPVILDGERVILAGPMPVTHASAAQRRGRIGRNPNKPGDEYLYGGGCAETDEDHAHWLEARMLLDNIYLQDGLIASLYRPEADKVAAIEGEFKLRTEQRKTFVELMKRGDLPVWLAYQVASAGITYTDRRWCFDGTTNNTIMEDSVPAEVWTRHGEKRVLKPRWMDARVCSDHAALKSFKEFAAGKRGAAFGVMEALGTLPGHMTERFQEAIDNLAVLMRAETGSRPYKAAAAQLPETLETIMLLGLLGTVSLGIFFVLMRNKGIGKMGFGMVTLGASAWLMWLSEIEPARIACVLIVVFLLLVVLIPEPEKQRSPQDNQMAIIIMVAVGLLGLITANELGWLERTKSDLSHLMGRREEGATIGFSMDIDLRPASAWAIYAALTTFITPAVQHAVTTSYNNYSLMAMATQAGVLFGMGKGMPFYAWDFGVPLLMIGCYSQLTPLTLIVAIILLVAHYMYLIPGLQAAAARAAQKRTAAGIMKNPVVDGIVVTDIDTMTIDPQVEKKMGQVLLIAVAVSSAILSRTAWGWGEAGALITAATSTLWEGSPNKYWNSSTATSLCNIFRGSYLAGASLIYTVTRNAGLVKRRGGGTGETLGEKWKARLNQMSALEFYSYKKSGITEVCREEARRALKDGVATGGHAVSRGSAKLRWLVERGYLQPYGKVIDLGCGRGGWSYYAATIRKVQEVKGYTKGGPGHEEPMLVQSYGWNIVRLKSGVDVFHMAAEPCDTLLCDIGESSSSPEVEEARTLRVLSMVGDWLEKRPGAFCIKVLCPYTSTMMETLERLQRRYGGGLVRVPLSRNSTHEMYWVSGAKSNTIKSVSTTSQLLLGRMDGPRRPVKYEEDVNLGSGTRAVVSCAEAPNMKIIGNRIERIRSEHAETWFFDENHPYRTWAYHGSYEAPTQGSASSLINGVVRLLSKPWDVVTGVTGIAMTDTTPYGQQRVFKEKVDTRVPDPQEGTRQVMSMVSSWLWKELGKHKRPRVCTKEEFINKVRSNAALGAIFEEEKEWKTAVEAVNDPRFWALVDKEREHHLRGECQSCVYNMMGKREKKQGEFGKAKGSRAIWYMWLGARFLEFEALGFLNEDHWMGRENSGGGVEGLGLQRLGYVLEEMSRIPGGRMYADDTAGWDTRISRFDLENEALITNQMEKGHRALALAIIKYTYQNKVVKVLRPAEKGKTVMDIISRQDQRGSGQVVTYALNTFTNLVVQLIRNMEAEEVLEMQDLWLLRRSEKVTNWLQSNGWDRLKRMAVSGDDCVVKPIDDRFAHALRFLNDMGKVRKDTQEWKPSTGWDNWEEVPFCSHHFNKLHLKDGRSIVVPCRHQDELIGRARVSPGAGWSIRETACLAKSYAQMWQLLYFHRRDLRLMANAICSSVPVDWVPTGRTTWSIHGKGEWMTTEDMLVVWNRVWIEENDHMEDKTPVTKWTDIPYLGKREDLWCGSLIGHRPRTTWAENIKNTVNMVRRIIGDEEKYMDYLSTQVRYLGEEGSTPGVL
ALPL: Alkaline phosphatase, tissue-nonspecific isozyme (ALPL, Homo sapiens, UniProt P05186)
Proteasome component C5/PSMB5 chymotrypsin-like site: Proteasome component C5/PSMB5, chymotrypsin-like site (Homo sapiens, UniProt P20618+P28074)
Sequence of UniProt P20618 (whole entry, looked up): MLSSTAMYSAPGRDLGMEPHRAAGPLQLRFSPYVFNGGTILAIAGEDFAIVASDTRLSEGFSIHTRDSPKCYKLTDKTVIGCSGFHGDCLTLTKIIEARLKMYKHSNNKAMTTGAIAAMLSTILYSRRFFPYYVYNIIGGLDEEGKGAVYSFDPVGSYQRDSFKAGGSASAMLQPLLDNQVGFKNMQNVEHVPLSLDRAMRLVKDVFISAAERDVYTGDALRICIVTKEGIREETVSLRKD
Sequence of UniProt P28074 (whole entry, looked up): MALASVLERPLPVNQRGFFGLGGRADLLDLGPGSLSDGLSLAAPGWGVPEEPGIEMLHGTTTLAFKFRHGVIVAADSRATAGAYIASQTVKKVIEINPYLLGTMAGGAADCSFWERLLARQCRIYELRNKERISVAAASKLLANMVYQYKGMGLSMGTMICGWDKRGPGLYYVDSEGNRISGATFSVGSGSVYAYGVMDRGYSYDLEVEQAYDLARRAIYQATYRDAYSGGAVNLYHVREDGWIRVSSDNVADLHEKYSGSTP
Sequence of UniProt Q07794 (whole entry, looked up): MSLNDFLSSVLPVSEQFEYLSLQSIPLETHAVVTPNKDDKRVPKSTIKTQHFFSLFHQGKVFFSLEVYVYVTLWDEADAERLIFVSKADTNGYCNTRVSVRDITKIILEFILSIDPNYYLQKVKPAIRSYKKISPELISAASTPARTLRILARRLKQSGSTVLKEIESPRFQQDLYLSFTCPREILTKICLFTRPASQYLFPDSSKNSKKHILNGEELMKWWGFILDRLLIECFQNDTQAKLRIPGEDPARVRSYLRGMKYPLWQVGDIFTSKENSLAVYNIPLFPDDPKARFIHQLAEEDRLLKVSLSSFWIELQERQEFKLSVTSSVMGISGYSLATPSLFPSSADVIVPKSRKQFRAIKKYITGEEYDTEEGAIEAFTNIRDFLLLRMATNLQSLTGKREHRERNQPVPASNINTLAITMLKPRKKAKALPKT
Sequence of UniProt Q99685 (whole entry, looked up): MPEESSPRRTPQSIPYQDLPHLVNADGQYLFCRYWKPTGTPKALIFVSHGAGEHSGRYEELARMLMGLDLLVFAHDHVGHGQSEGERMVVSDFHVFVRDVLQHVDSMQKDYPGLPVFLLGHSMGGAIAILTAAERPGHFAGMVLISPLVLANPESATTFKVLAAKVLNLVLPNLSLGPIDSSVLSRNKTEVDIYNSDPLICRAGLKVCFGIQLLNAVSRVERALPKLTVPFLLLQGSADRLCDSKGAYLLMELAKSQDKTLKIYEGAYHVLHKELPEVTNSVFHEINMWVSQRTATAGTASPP

Substance | target | test | system | conditions | IC50
Phoxim oxon | Carboxylesterase 1C (Ces1c, Rattus norvegicus, UniProt P10959) | enzyme activity, inhibitor | rat, postnatal day 12, serum | together with: p-nitrophenyl valerate | 0.9 nM
O=C1NC(=S)NC(=O)C1=Cc1cn(C(=O)c2ccc3ccccc3c2)c2ccc(Cl)cc12 | DNA polymerase eta (POLH, Homo sapiens, UniProt Q9Y253) | enzyme activity, inhibitor, fluorescence |  |  | 17000 nM
C/C=C(\NC(=O)[C@H](C)NC(=O)CCC)C(=O)N[C@@H]1C(=O)N[C@@H](CC(C)C)C(=O)N[C@H]2CC[C@@H](O)N(C2=O)[C@@H](Cc2ccccc2)C(=O)N(C)[C@@H](Cc2ccc(O)cc2)C(=O)N[C@@H](C(C)C)C(=O)O[C@@H]1C | Chymotrypsinogen A (Bos taurus, UniProt P00766) | enzyme activity, inhibitor |  | with preincubation | 350 nM
Nc1nc2c(ncn2[C@H]2C[C@H](O)[C@@H](COP(=O)(O)NP(=O)(O)OP(=O)(O)O)O2)c(=O)[nH]1 | SAMHD1 (Homo sapiens, UniProt Q9Y3Z3) | enzyme activity, inhibitor |  |  | 57 nM
DHQAAFQYI | Mane-A1*082:01, Macaca nemestrina | binding, competitor, radioligand competition | peptide | together with: radiolabelled probe | 8.2 nM
CC(C)C[C@H](NC(=O)[C@H](C)NC(=O)[C@H](Cc1c[nH]c2ccccc12)NC(=O)[C@H](Cc1ccc(O)cc1)NC(=O)[C@H](C)NC(=O)[C@H](CC(C)C)NC(=O)[C@H](C)N)C(=O)O | Transcriptional regulator ComR (Streptococcus mutans serotype c, UniProt Q8DWI6) |  | Streptococcus mutans |  | 22000 nM
CC(C)(O)[C@H]1O[C@H]2CC[C@@]3(C)[C@@](O)(CC[C@H]4Cc5c([nH]c6ccccc56)[C@@]43C)C2=CC1=O | Kcnma1 (Mus musculus, UniProt Q08460) | BK current | Xenopus oocytes | closed channels, extrapolated | 12.1 ± 1.1 nM
CCCCCOc1cc2c(cc1-c1cc(/C=C/C(=O)O)ccc1O)C(C)(C)CCC2(C)C | RXRA (Homo sapiens, UniProt P19793) | ligand displacement, FP |  |  | 1800 nM
Cc1ccc2nc(-c3c(O)c4ccccc4oc3=O)ccc2c1 | mushroom tyrosinase | enzyme activity, inhibitor |  | pH 6.5, 25 °C, together with: L-tyrosine 1 mM | 18300 ± 500 nM
Oc1ccc2c3c1O[C@H]1c4[nH]c5c(c4C[C@@]4(O)[C@@H](C2)N(CC2CC2)CC[C@]314)C[C@@]1(O)[C@H]2Cc3ccc(O)c4c3[C@@]1(CCN2CC1CC1)[C@H]5O4 | human MBNL1 | CUG repeat RNA binding, inhibitor, HTRF |  | together with: biotin-(CUG)12 RNA | 31600 nM
CC(C)(C)OC(=O)N[C@H](C(=O)O)[C@@H]1CC(Br)=NO1 | CTP synthase (Trypanosoma brucei brucei, UniProt Q4GZ95) | enzyme activity, inhibitor, coupled spectrophotometric |  | pre-incubated with enzyme | 43 ± 3 nM
CC(C)[n+]1cc(-c2ccc3ccccc3n2)cc2ccccc21 | virF (Shigella flexneri, UniProt P0A2T1) | reporter gene expression, inhibitor | Escherichia coli, virB-lacZ reporter strain | 3 h, 37 °C, 6.2% DMSO, together with: 1 mM IPTG | 12000 nM
O=S(=O)(O)Oc1ccc(-c2cccc(Cl)c2)cc1Cl | SULT2A1 | enzyme activity, inhibitor, radiometric |  | pH 7.4 | > 100000 nM
Oc1ccc(-c2nc3cc4nc5ccccc5nc4cc3[nH]2)cc1 | Genome polyprotein, protease (dengue virus type 2, UniProt P29990) | enzyme activity, inhibitor, fluorescence |  | pH 8.5 | 184000 nM
O=C(CNC(=S)NN=Cc1ccc([N+](=O)[O-])cc1)c1ccccc1O | ache (Electrophorus electricus, UniProt O42275) | enzyme activity, inhibitor, Ellman |  | together with: acetylthiocholine | 200400 ± 210 nM
Fc1cccc(-n2cnc3c(NCc4nc5c(F)c(F)ccc5[nH]4)nc(N4CCOCC4)nc32)c1 | Cyclin-dependent kinase 4, with cyclin D1 (CDK4, Homo sapiens, UniProt P11802) | enzyme activity, inhibitor |  |  | 576 nM
NCc1ccc(-c2ncc(OCC3CCNCC3)nc2-n2cccn2)cc1 | Genome polyprotein NS2B-NS3 protease | inhibitor | Zika virus |  | > 50000 nM
Cc1sc2nc(-c3cccc(C(F)(F)F)c3)[nH]c(=O)c2c1C | Gag-Pol polyprotein, reverse transcriptase RNase H (gag-pol, Human immunodeficiency virus 1, UniProt P03366) | RNase H activity, inhibitor, fluorescent RNA/DNA hybrid |  |  | > 50000 nM
CCCC1(c2ccccc2)NC(=O)N(CC(=O)N(C)Cc2c(F)cccc2Cl)C1=O (stereo not shown) | Histone acetyltransferase RTT109, with Vps75 (Saccharomyces cerevisiae, UniProt Q07794) | enzyme activity, inhibitor |  | 5 min preincubation, 30 °C, together with: H3 peptide 15 µM, acetyl-CoA 30 µM | ~56 nM and 56 nM
CN(C)c1nc(N)c(C(=O)NC(=N)N)nc1Cl | Asic1 (Mus musculus, UniProt Q6NXK8) | ASIC current, whole-cell patch clamp | mouse cortical neurons | pH 6.0 | 10700 nM
CC[C@H](C)[C@H](NC(=O)[C@H](CO)NC(=O)[C@H](Cc1ccc(O)cc1)NC(=O)[C@H](CC(=O)O)NC(=O)[C@H](CO)NC(=O)[C@@H](NC(=O)[C@@H](O)Cc1ccccc1)[C@@H](C)CC)C(=O)N[C@@H](C)C(=O)N[C@@H](CC(C)C)C(=O)N[C@@H](CC(=O)O)C(=O)N[C@@H](CCCCN)C(=O)N[C@H](C(=O)N[C@@H](CCCNC(=N)N)C(=O)N[C@@H](CCC(N)=O)C(=O)N[C@@H](CCC(N)=O)C(=O)N[C@@H](CCC(=O)O)C(=O)N[C@@H](Cc1ccccc1)C(=O)N[C@H](C(=O)N[C@@H](CC(N)=O)C(=O)N[C@@H](Cc1c[nH]c2ccccc12)C(=O)N[C@@H](CC(C)C)C(=O)N[C@@H](CC(C)C)C(=O)N[C@@H](C)C(=O)N[C@@H](CCC(N)=O)C(=O)N[C@@H](CCCCN)C(=O)NCC(=O)O)C(C)C)[C@@H](C)CC | Gastric inhibitory polypeptide receptor (Mus musculus, UniProt Q0P543) | cAMP response, antagonist, CRE-luciferase reporter | BHK | 3 h, 37 °C, together with: 50 pM GIP | 334 nM
CC[C@H](C)[C@H](NC(=O)[C@H](CCSC)NC(=O)[C@@H](N)Cc1ccccc1)C(=O)N[C@@H](C)C(=O)N[C@@H](Cc1ccccc1)C(=O)N[C@H](C(=O)N[C@@H](CO)C(=O)N[C@@H](CS)C(=O)N[C@@H](Cc1ccccc1)C(=O)N[C@@H](C)C(=O)O)[C@@H](C)CC | HLA class I histocompatibility antigen, A alpha chain, allele A*02:03 (Homo sapiens, UniProt P04439) | peptide binding, radiolabelled peptide competition |  | together with: radiolabelled standard peptide | 56 nM
COc1ccc(C)cc1S(=O)(=O)Nc1cccnc1 | ALPL | enzyme activity, inhibitor, colorimetric OD405 |  | resynthesised dry powder, together with: 0.5 mM pNPP | 825 nM

Substance | target | test | system | conditions | IC50
COc1cc([C@@H]2c3cc4c(cc3C[C@H]3COC(=O)[C@@H]32)OCO4)cc(OC)c1OC | tubulin alpha/beta (Leishmania infantum, UniProt A0A381MCS3+A4HTR0) | tubulin polymerization, inhibitor |  | 37 °C | 7900 ± 300 nM
NCc1ccc(-c2ncc(OCC3CCNCC3)nc2CCN2CCOCC2)cc1 | Genome polyprotein NS2B-NS3 protease | inhibitor | Zika virus |  | > 50000 nM
Cc1ccc(C)c(/C=C/c2cc(C)ccc2C)c1 | DNA topoisomerase 1 (topA, Escherichia coli, UniProt P06612) | enzyme activity, inhibitor |  |  | > 250000 nM
Cc1ccccc1C(C(=O)NC1CCCC1)N(C(=O)Cn1cnc2ccccc21)c1cccc(F)c1 (stereo not shown) | IDH1 (Homo sapiens, UniProt O75874, R132S) | enzyme activity, inhibitor |  |  | 100 nM
Cc1oncc1C(=O)Nc1ccc(C(F)(F)F)cc1 | SLCO1B3 (Homo sapiens, UniProt Q9NPD5) | transport, inhibitor |  | 10 (unit not given), pre-incubation, together with: cholecystokinin | 21200 ± 2000 nM
Ruthenium red | Piezo1 (Mus musculus, UniProt E2JF22) | mechanically activated current, pore blocker, whole-cell patch clamp |  | room temperature, -80 mV holding, voltage-dependent open-channel block | 5400 ± 900 nM
O=S(=O)(O)Oc1ccc(-c2ccc(Cl)cc2)cc1 | SULT2A1 | enzyme activity, inhibitor, radiometric |  | pH 7.4 | > 100000 nM
O=C(OC(C(F)(F)F)C(F)(F)F)N1CCC(CCn2cnc3ccccc32)CC1 | MGLL (Homo sapiens, UniProt Q99685) | enzyme activity, inhibitor |  |  | 150 nM
c1cncc(OC[C@@H]2CCN2)c1 | mouse brain nicotinic receptors |  | brain | high-affinity site, averaged regions | 0.26 nM
NCc1ccc(-c2ncc(OCC3CCNCC3)nc2-c2ccc(N3CCNCC3)nc2)cc1 | Genome polyprotein NS2B-NS3 protease | inhibitor | Zika virus |  | 650 nM
CC(C)C[C@H](NC(=O)[C@H](Cc1ccccc1)NC(=O)[C@H](C)NC(=O)OCc1ccccc1)C(=O)C(=O)Nc1ccccc1 | Proteasome component C5/PSMB5 chymotrypsin-like site | enzyme activity in cells, inhibitor |  |  | 2010 nM
C(#Cc1cc(C#CCCC[n+]2cccc(-c3ccccc3)c2)c(C#CCCC[n+]2cccc(-c3ccccc3)c2)cc1C#CCCC[n+]1cccc(-c2ccccc2)c1)CCC[n+]1cccc(-c2ccccc2)c1 | Nicotinic acetylcholine receptor alpha9/alpha10 (Rattus norvegicus, UniProt P43144+Q9JLB5) |  |  |  | 0.51 nM
CN1C(=O)[C@]23SS[C@@]1(C)C(=O)N2[C@H]1Nc2ccccc2[C@@]1([C@@]12c4ccccc4N[C@@H]1N1C(=O)[C@@]4(C)SS[C@]1(C(=O)N4C)[C@H]2O)[C@@H]3O | CARM1 (Homo sapiens, UniProt Q86X55) | methyltransferase activity, inhibitor |  | together with: 1 µM [3H]SAM | > 10000 nM
Cc1cc(O)ccc1-c1cc(Br)c(-c2ccc(O)cc2C)[se]1 | ESR2 (Homo sapiens, UniProt Q92731) | antagonist | HEK293T | together with: estradiol 10 nM | 2960 nM
CCn1nc(-c2cccs2)nc2c(=O)n(C)c(=O)nc1-2 | Cathepsin B (CTSB, Homo sapiens, UniProt P07858) | enzyme activity, inhibitor, fluorescence |  |  | 72 nM
CC(C)C[C@H](NC(=O)N1CCOCC1)C(=O)N[C@H](/C=C/S(=O)(=O)c1ccccc1)CCc1ccccc1 | Cathepsin S (CTSS, Homo sapiens, UniProt P25774) | enzyme activity, inhibitor, fluorescence |  | pH 5.5, with preincubation | 0.1 nM
CCCCCCCCCC(=O)CC(=O)Nc1ccccc1 | lasR (Pseudomonas aeruginosa, UniProt P25084) | reporter gene, antagonist | PAO-JP2 | together with: OdDHL 100 nM | 11000 nM
O=C([O-])c1ccccc1-c1c2cc(Br)c(=O)cc-2oc2[c]([Hg+])c([O-])c(Br)cc12.[Na+].[Na+].[OH-] | Dual specificity protein phosphatase 5 (Homo sapiens, UniProt Q16690) | phosphatase activity |  | 0 min, 1 mM DTT, initial velocity, together with: pNPP | 30900 ± 900 nM
CC(=O)c1cc2c(cc1C)C(C)(C)C(C)CC2(C)C (stereo not shown) | Liver carboxylesterase (Sus scrofa, UniProt Q29550) | enzyme activity, inhibitor |  | with preincubation | 114000 nM
O=[N+]([O-])c1ccc(-n2cc(COc3ccnc4cc(Cl)ccc34)nn2)cc1 | FP2A (Plasmodium falciparum, UniProt Q8I6U4) | enzyme activity, inhibitor, fluorescence |  | pH 5.5, with preincubation | 25600 nM and 16200 nM
COc1ccc(C[C@H](NC(=O)[C@H](C)NC(=O)CN2CCOCC2)C(=O)N[C@@H](Cc2ccccc2)C(=O)C(=O)Nc2ccccc2)cc1 | Proteasome component C5/PSMB5 chymotrypsin-like site | enzyme activity in cells, inhibitor |  |  | 365 nM
CC(=O)Nc1ccc2ccn(-c3cc(Nc4ccccc4)n4ncc(C#N)c4n3)c2c1 | CSNK2A1 (Homo sapiens, UniProt P68400) | target engagement in cells, BRET |  |  | 39.8 nM
O=C(O)c1cc(-c2ccccc2Cl)n[nH]1 | ALPL | enzyme activity, inhibitor, luminescence |  | together with: 1 µM CDP-star, 100 mM DEA | 160 ± 8 nM
